Published values from different studies.
Parts stem from different laboratories: compare values within a part only.

Sample 1 — method: aptamer microarray, sandwich; form: DNA with 2'F-ANA; sample: in vitro; concentration: 200 nM; added: Cy3 exosite-II aptamer, 400 nM; reading: higher = stronger binding; quantity: mean fluorescence intensity; strand: GGTTGGTGTGGTTGG
Target: Prothrombin, mature alpha-thrombin (F2, Homo sapiens, UniProt P00734)
Notes: whole 15-mer aptamer, many near background
2'F-ANA at 4 6 8 9 10 11 12: 92.6 a.u.
2'F-ANA at 1 2 3 6 7 8 9 11 12 14: 107 a.u.
2'F-ANA at 1 5 6 7 9 10 12 13 14: 134 a.u.
2'F-ANA at 3 7 9 12: 1610 a.u.
2'F-ANA at 3 6 7 8: 1170 a.u.
2'F-ANA at 1 2 3 5 7 10 15: 48.6 a.u.
2'F-ANA at 2 3 4 5 6 8 10 13: 55.2 a.u.
2'F-ANA at 2 4 7 10 12 14: 81.6 a.u.
2'F-ANA at 1 2 7 8 9 10 13 14: 45.4 a.u.
2'F-ANA at 1 4 6 8 11 12 14 15: 57.3 a.u.
2'F-ANA at 1 3 4 8 9 11 13 14 15: 63.6 a.u.
2'F-ANA at 3 6 8 11 13 15: 843 a.u.
2'F-ANA at 1 2 6 8 10 11 12: 60.4 a.u.
2'F-ANA at 1 4 9 10 11 12 13 14: 53.3 a.u.
2'F-ANA at 4 7 8 11 12 13: 429 a.u.
2'F-ANA at 1 2 4 5 6 7 12 13 15: 90.1 a.u.
2'F-ANA at 4 5 6 7 15: 62.7 a.u.

Sample 2 — method: RNA Bind-n-Seq; form: RNA; sample: in vitro; concentration: 200 nM; notes: whole 134-nt RNA, ends assumed; added: 150 mM KCl; reference: input library; reading: higher = stronger binding; quantity: log2 enrichment
Target: Ras GTPase-activating protein-binding protein 1, full length (G3BP1, Homo sapiens, UniProt Q13283)
UniProt Q13283, sequence (whole entry, looked up): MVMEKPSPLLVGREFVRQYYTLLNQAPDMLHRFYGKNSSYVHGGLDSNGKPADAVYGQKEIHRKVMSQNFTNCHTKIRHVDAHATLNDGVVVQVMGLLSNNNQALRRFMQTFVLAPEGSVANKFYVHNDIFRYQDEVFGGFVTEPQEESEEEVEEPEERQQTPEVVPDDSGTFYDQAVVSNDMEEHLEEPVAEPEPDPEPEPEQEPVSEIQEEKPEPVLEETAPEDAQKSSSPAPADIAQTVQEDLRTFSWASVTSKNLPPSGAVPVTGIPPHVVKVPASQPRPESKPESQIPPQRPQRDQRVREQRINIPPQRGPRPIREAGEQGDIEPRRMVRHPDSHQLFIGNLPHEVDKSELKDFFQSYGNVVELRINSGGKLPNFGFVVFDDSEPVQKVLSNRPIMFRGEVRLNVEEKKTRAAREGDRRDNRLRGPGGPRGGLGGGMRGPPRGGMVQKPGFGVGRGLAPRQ
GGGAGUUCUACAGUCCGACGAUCCACAGACAACACGCACCCACACAGACACAGAGGGAAGGGGUUGGGAUGGGGACAGGGUGCACAGCAGGGCGGGGUAGGACCCCAGUCCCUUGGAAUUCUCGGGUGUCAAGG: 1.93
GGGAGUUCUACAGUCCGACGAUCCCUCAAGUCCUGUGCUACACAUCGUAUGUACCGAAUCGGGCGGCGGGCGGGGAAAGUAUUAUGUUACGCCGUUCGGAUCUGCACUUCCAGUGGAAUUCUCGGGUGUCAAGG: 0.681
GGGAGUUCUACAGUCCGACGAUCCACAGACAACACGCACCCACACAGACACAGAGGGAAGGGGUUGGGAUGGGGACAGGGUGCACAGCAGGGCGGAAAAGGACCCCAGCCCCUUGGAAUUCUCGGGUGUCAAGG: 1.8
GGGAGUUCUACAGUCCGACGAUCUGGGAGGUGGAUUGUGUUUAUUUUUUUAGCUCAUUUCCAGGGGUGGGAAUUUUUUUUUAAUAUGUGUCAUGAAUAAAGUUGUUUUUGAAAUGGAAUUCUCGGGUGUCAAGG: -0.062
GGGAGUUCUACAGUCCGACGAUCGCAGGAAGUAAAAACAAAUGGAAAUGCUUCGGAUAGUGGCAGGGGUGGGGGUUGCUAAGGAAAAAGUGGGAUGGGAGUGGGUAAAGAGUUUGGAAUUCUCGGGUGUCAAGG: 0.845
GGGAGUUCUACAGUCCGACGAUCCCUGUGCUACACAUCGUAUGUACCGAAUCGGGAAAAAAAGGGUUUUUGGGAAAAAAAGGGAAAGUAUUAUGUUACGCCGUUCGGAUCUGCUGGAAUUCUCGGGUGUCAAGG: -0.834
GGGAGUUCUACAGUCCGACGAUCAAGUCCUGUGCUACACAUCGUAUGUACCGAAUCGGAAAAGGGAAAAGGAAAAGGGGAAAGUAUUAUGUUACGCCGUUCGGAUCUGCACUUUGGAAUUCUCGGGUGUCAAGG: -0.906
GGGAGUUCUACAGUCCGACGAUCCAAGUCCUGUGCUACACAUCGUAUGUACCGAAUCGGGGAAAGGAAAGGGGAAAGGGAAAGUAUUAUGUUACGCCGUUCGGAUCUGCACUUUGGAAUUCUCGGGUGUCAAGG: 0.364
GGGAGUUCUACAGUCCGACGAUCAGUCCUGUGCUACACAUCGUAUGUACCGAAUCGGGGUGGGGUUUUUGGGGAAAGGGGAAAGUAUUAUGUUACGCCGUUCGGAUCUGCACUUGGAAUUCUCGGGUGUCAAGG: 0.576
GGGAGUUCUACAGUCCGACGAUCGCAGGAAGUAAAAACAAAUGGAAAUGCUUCGGAUAGUGGGAGGGGUGGGGGUUGCUAAGGAAAGGGUGGGAUGGGAGUGGGUAAAGAGUUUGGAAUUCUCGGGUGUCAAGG: 1.02
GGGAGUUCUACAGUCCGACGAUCCAAGUCCUGUGCUACACAUCGUAUGUACCGAAUCGGAGGUUUUUUUGGUUUUUGGAAAGUAUUAUGUUACGCCGUUCGGAUCUGCACUUCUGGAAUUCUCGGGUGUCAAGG: -1.24
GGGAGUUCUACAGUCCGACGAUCCUCAAGUCCUGUGCUACACAUCGUAUGUACCGAAUCGGUUUGGAAAGGUUUGGAAAGUAUUAUGUUACGCCGUUCGGAUCUGCACUUCCAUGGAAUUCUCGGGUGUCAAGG: -0.577
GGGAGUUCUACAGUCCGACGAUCGUCCUGUGCUACACAUCGUAUGUACCGAAUCGGCCCCCGGGGCCCCCGGGGCCCCCGGGAAAGUAUUAUGUUACGCCGUUCGGAUCUGCAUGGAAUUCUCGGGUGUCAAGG: -0.392
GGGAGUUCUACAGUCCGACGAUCAGUCCUGUGCUACACAUCGUAUGUACCGAAUCGGCCCCCGGGGCCCCCGGCCCCCGGAAAGUAUUAUGUUACGCCGUUCGGAUCUGCACUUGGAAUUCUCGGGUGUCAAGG: -0.858

Sample 3 — method: RNA Bind-n-Seq; form: RNA; sample: in vitro; concentration: not given; notes: RNA with constant flanks, ends assumed; reference: input RNA pool; reading: higher = stronger binding; quantity: bound/input enrichment
Target: RING finger protein unkempt homolog, zinc fingers 1-6, GST-SBP tag (UNK, Homo sapiens, UniProt Q9C0B0, residues 30-357)
UniProt Q9C0B0, sequence (30-357, looked up): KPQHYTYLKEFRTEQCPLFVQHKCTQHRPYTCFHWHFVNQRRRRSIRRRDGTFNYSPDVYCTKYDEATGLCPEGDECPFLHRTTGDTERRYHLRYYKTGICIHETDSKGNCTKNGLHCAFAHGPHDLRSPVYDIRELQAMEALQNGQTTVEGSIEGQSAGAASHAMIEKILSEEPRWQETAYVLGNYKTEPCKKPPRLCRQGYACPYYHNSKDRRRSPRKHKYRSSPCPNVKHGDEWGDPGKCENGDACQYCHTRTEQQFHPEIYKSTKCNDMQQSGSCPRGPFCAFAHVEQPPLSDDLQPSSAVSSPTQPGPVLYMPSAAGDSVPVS
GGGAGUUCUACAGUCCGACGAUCAAUAAGCCCUGCCCAGUAUGUAGACAACCAAUUCAAAUGAUUGUGCUAACUUAUUUCCCCCCGUUGACCUGUCUAUAAGAGAAUUAUAUAUUUCUAACUAUAUAACCCUAGGAAUUUAGACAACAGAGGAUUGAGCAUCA: 3.6 ratio
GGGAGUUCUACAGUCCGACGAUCGGCAAAGUACAACAGCUACCAAAAUAUACAUCUCAAAUUGUGGGUAGAUUCAUUAAGCCUCUCCGCAAUGCAUACCACGAGUUAGCACAAGUGUAUUCAACCAACAACCCCUCAGAACUCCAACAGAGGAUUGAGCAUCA: 0.3 ratio
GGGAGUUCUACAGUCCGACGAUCAGGCUCGAGGGCGGUGAGCAGUGACAAUUGCUAGGCGGAGACAGUGCAGGGAAGAGAGACCUCCGAAAGGAUCAGGACUGGCGGGAGGUAUUUAACUGAAAGGAAUAUCUGCUUCACUGUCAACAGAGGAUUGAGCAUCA: 0.226 ratio
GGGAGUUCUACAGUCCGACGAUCGGCCUCUCGCUGGUGCCCGUGAUCUUUGUUCUGUAUCGUUGGGGGGAGGUGAGAUCAGUCAACCGGGGUGUUGCUGUUUCCCAUCCCUGCCCCCCCCCCCCAAUUGUUAAUUUUAAGCUGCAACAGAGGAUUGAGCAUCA: 0.18 ratio
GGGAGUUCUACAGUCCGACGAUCGAAAAUCCAUAUGACCUUGAUGCUUGGAGCAUUCUCAUUCGAGAGGCACAGAAUCAACCUACCGACAAAGCACGGAAGACUUACGAACGCCUUGUUGCCCAGUUCCCCAGUUCUGGCAGACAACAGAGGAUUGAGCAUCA: 0.139 ratio
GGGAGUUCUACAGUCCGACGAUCCUGAGCCCAGGGUCCCAAAUCAACGUGCUGGAAGACCCAGGCUACCUAGAUCUCACACAAACCGAAGCAAGCAAACCUCACAGUGCCCAGUUUUUGCUACCAGUUGAGAUGUUUGGUCCUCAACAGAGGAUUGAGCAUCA: 0.334 ratio
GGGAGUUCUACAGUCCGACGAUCCUCAUUCUUUCCUUGGCGUGUCUGAGUGUCCUCUGUCCUCUGGUUAUCCGUGCCUUGGUCCUCCGGGAAGAGAGCUGUGGUAGGGUAUGAAGAUGGUACCAUCAGGAUCUGGGACCUCAACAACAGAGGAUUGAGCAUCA: 0.174 ratio
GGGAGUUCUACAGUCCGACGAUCCAGAUGCUUGUGACCACACCAGAAAAAUGGGAUGUAGUGACAAGAAAGAGUGUUGGGGAUGCCGCUCUUUCCCAGAUUGUAAGGCUCCUUAUUCUUGAUGAAGUUCAUUUGCUGCAUGAACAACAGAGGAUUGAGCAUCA: 0.205 ratio
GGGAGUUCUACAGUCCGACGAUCUCACAAGCACAAAUCUUUCCCACUAGCCAUUUAAUAAGUUAAAAAAAGAUACACAAACCUACCCGUCUUGAACAAACUGUCAUACGUAUGGGACCUACACUUAAUCUCUAUGCUUUACACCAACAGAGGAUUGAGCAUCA: 15.8 ratio
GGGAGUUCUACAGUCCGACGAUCAAGAAUAUUCGCUUUCCACUGAUGACACCACAGGAUCUCAUCAACUAUGUGCAGACAGCCGAUUUCAUGAGAACAGACAAUACCUGUGUGAAUUUACUUUUGGAAGCAAGCAAUUACCAACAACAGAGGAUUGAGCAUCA: 0.191 ratio
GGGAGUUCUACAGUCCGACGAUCCAGGUGGCAGAGGAGCUGGGGCAUCGCCCACCGCUGUAGCCAGCUGCAUAGUUUAAGCCGCUCCGCACAGCAGAAUUUGGAAACACUUAAAAAAGCAAAAGGGUGUACAAUCAUAUUUACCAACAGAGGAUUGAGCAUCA: 0.254 ratio

Sample 4 — method: RNA Bind-n-Seq; form: RNA; sample: in vitro; concentration: 365 nM; reference: no-protein control; reading: higher = stronger binding; quantity: RBNS enrichment (R)
Target: RNA binding protein fox-1 homolog 2, RRM domain, GST-SBP tag (RBFOX2, Homo sapiens, UniProt O43251-10, residues 100-194)
Notes: natural RNA segment, single round, ends assumed
Target sequence (chain): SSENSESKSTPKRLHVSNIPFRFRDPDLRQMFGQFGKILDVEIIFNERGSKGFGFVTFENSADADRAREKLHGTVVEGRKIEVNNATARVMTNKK
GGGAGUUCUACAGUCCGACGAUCCCAGAGCCCCACGCGGCUGCCCGGCAGUACCUCCUCCAGGCAGGAGCCGGGACUGUCACUUUGGAGACAAAACAGUGUUUGUAACAAUAACGUACUCACCGCCGCGGACAUGGAAUUCUCGGGUGCCAA: 0.227
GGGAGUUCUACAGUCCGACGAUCAAGAAGAAAGACUCCCUUCACUUUGCCCUUAACACUUGCCUCUGUUAUCUAAGCUUCGUUAAUAGAUUUCUUAAUAUCAUCCAAUGUUUGGUGUUAUCUGCAUUGUUUUUUGGAAUUCUCGGGUGCCAA: 0.323
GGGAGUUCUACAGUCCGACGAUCAGAUGUUAUUACUGUACUUUCCCCAAAUUCUGCUCCUGUACUUGCAAACUGAAGGUAACUAUACCUAGACUUAAAUCCUAAGGAAGCAAGUUACCUUCUGGGCAAAGGCUUGGAAUUCUCGGGUGCCAA: 0.225
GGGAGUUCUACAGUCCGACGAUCAUCUGGACUUAUUUUUGGACUUAGUGCAACAGGUUGAGGCUAAAACAAAUCUCAGAACAGUCUGAAAUACCUUUGCCUGGAUACCUCUGGCUCCUUCAGCAGCUAGAGCUUGGAAUUCUCGGGUGCCAA: 0.422
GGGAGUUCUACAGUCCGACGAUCUGCAGCCAUUGCUAUUGCAAUUCAUUUAAUAAAGCUUUAGUUUAAAAACCAAGCAUUGUGUACAGGAGCUAGGGCAGCGCAGGAGGCCCUUUCAGUUGGAGAGGCAGGUUUGGAAUUCUCGGGUGCCAA: 0.675
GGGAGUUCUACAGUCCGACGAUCCCAACCCAUGAACUCUUCACUCCUUGGGGAAGCCACCUCCCAUCACACCCCUGAGCAGAGUUAGGGAGGAAUUCUACUUCCCAUAAAAGGACCUCUCCUGAGAGGCAAAAUGGAAUUCUCGGGUGCCAA: 0.344
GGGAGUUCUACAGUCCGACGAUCAGGGCCUCCAUCCCUGUAUUCUAAUGUUUUUACUCAAAGCUCUAGCCUUUAGGAUAGGUGAAUAUGUAAAUCUUUUAUCACUUUCUCAAAUUCAAACUAAAGGGGAAAGAUGGAAUUCUCGGGUGCCAA: 0.301
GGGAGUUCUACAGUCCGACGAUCAUAUCUCCAAGUGGAAACGUGCUAACUUUCUGUAAAUCUUAAAUAAAAGGUGCUGUUCCUUCCUCUGACCCAGGACUGGUUUGUGUUUUCUGUCUUUCUUUCCAUUCCUUUGGAAUUCUCGGGUGCCAA: 0.626
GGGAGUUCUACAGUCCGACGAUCUAAUUCAACUGAAUAAAAGUGUCACGGGUAAAGCUUUUUAACGGUUAAUUUCUGUCAAACAGUAGGUGACAAAUGGCCGAUCUUAUCAGUGUCUCUUGAGCAUCCCUUCGUGGAAUUCUCGGGUGCCAA: 0.443
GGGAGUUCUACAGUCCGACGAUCGAAAUUUUUCUUUCUAACCCAGUGGAGGUUAGAAAGAAGUUAUAUUCUGGUAGCAAAUUAACUUUACAUCCUUUUUCCUACUUGUUAUGGUUGUUUGGACCGAUAAGUGUUGGAAUUCUCGGGUGCCAA: 0.48
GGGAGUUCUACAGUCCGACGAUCUCUCAGCCAAAGAGGGAAAGGAAAGGGUCGCUCUUGACUGCUGAGAGCAUAGCUAAUGUACCUGGAAUCUGAGCAGCCCUGGUCUCAGCAGAGCCUGAAAUUAAACUCAUUGGAAUUCUCGGGUGCCAA: 0.434
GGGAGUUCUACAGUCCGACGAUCAGCAAAAUCACCCUCUGGCCCCUUGGCAGGUAAGGCCUCCCGGUCAGCAUUAUCCUGCCAGACCUCGGGGAGGAUACCUGGGAGACAGAAGCCUCUGCACCUACUGUGCAUGGAAUUCUCGGGUGCCAA: 1.04
